Assay results pooled from the literature.
Protocols differ between the studies behind these lines. ± marks the error that the study gave.
Target: Neuropeptide Y receptor type 1 (NPY1R, Homo sapiens, UniProt P25929)
UniProt P25929, sequence (whole entry, looked up): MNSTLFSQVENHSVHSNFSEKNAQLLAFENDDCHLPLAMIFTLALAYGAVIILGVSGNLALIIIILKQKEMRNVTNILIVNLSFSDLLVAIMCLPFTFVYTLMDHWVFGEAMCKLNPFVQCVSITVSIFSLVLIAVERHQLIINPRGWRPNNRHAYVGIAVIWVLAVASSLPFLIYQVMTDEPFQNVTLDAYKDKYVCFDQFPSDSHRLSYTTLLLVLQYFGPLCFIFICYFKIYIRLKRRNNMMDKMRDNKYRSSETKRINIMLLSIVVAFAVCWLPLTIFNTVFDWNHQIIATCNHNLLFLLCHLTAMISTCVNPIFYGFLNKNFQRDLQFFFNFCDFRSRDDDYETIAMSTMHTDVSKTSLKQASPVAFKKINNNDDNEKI

COCC(=O)N1CCc2cc(-c3csc(NC(=O)c4cc(OC)cc(OC)c4)n3)ccc21
inhibition (cell-free assay; 10 µM): -8%

Cn1ccc2cc(-n3c(=O)[nH]c4sc5c(c4c3=O)CCCC5)ccc21
inhibition (cell-free assay; 10 µM): 0%

CC[C@H](C)[C@H](NC(=O)[C@H](Cc1ccc(O)cc1)NC(=O)[C@H](CCCNC(=N)N)NC(=O)[C@H](CCCNC(=N)N)NC(=O)[C@H](CC(C)C)NC(=O)[C@H](CC(=O)O)NC(=O)[C@H](C)NC(=O)[C@H](C)NC(=O)[C@H](Cc1ccc(O)cc1)NC(=O)[C@H](CCC(N)=O)NC(=O)[C@H](C)NC(=O)[C@H](CCSC)NC(=O)[C@H](CCC(N)=O)NC(=O)[C@H](CCC(=O)O)NC(=O)[C@@H]1CCCN1C(=O)[C@@H](NC(=O)[C@H](C)NC(=O)[C@H](CC(N)=O)NC(=O)[C@H](CC(=O)O)NC(=O)CNC(=O)[C@@H]1CCCN1C(=O)[C@H](Cc1ccc(O)cc1)NC(=O)[C@@H](NC(=O)[C@@H]1CCCN1C(=O)[C@H](CCCCN)NC(=O)[C@H](CC(C)C)NC(=O)[C@@H]1CCCN1C(=O)[C@@H](N)Cc1ccc(O)cc1)C(C)C)[C@@H](C)O)C(=O)N[C@@H](CC(N)=O)C(=O)N[C@@H](CCSC)C(=O)N[C@@H](CC(C)C)C(=O)N[C@H](C(=O)N[C@@H](CCCNC(=N)N)C(=O)N1CCC[C@H]1C(=O)N[C@@H](CCCNC(=N)N)C(=O)N[C@@H](Cc1ccc(O)cc1)C(N)=O)[C@@H](C)O
Emax (concentration not given): 104 ± 4%

C[Si]1(C[C@H](CN)CC(=O)O)CCCC1
inhibition (ligand displacement, radioligand; 70 µM): -5%

O=C1c2sc(-c3ccc(N4CCC(F)C4)nc3F)nc2CCN1c1cccnc1 (stereo not shown)
inhibition (ligand displacement, radioligand; 1 µM): -2%

CCC(=O)N(C)c1ccc(Cl)c(Cl)c1
inhibition (ligand displacement, radioligand; 10 µM): < 10%

Cc1[nH]nc2c1N=C(c1ccccc1Cl)c1cnc(N3CCOCC3)cc1N2
inhibition (cell-free assay; 10 µM): 2%

CC(=O)c1cnc(N)nc1N1CC[C@H]1c1nn2ccc(Cl)c2c(=O)n1-c1ccccc1
inhibition (ligand displacement, radioligand; 10 µM): 15%

C[Si](C)(C)C[C@@H](CN)CC(=O)O
inhibition (ligand displacement, radioligand; 75 µM): -11%

CO[C@@H](C)c1c(NC(=O)Nc2cnc(-n3nccn3)c(C(F)(F)F)c2)cnc2sc(C)nc12
inhibition (ligand displacement, radioligand; 10 µM): -52.8%

Repeated from above:
O=C1c2sc(-c3ccc(N4CCC(F)C4)nc3F)nc2CCN1c1cccnc1 (stereo not shown)
inhibition (ligand displacement, radioligand; 1 µM): -2%
